Assay results pooled from the literature.
Parts stem from different laboratories: compare values within a part only.

Study 1
Target: Histone acetyltransferase KAT6A, winged helix 1, GST fusion (KAT6A, Homo sapiens, UniProt Q92794, residues 1-85)
Technique: protein binding microarray
Form: double-stranded DNA, one strand shown
Sample: in vitro
Tested at: not given
Notes: 8-mer, flanks averaged, mean of 2 arrays, mostly near background
Relative to: not given
Reading: higher = stronger binding
Measurement: E-score
Construct (chain): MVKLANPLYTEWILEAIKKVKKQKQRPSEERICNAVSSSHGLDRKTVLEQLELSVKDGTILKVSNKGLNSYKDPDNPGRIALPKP
AGCCATAC: -0.0764
GAGACTAC: 0.00284
ACAGAGAG: -0.2
ATTTTACG: -0.033
CTGCGACA: 0.153
CATAATGC: 0.0483
CCGCACAC: 0.287
ATCTCGAA: -0.0153
AAGGGACC: -0.00525
TAAGTTAA: -0.226
AATAACCG: 0.162
AAGTTCGC: -0.0564
GAGGTCAA: -0.184
CCTCAAGC: -0.0446
AGCAGCCT: -0.175
AGTAAACT: -0.0309
CGAAATGA: -0.14
AGAACTAT: -0.0569

Study 2
Target: Ras GTPase-activating protein-binding protein 1, RRM domain (G3BP1, Homo sapiens, UniProt Q13283)
UniProt Q13283, sequence (whole entry, looked up): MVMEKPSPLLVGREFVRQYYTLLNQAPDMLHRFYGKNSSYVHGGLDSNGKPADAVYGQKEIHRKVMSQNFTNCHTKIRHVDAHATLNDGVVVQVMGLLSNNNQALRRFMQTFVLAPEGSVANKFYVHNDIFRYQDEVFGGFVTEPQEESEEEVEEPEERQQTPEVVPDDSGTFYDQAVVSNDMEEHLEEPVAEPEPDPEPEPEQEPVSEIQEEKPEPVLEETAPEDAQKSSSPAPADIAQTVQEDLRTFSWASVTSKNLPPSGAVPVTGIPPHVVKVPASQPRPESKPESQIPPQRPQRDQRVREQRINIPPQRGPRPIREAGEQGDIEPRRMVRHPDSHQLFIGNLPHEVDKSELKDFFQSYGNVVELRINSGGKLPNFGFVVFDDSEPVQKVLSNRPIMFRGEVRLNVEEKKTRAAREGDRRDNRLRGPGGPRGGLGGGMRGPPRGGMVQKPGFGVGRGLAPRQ
Technique: RNA Bind-n-Seq
Form: RNA
Sample: in vitro
Tested at: 1 µM
Notes: whole 134-nt RNA, ends assumed
Together with: 150 mM KCl
Relative to: input library
Reading: higher = stronger binding
Measurement: log2 enrichment
Constant ends, left off below: GGGAGUUCUACAGUCCGACGAUC … UGGAAUUCUCGGGUGUCAAGG
ACCAUUCAGGUGGGCAUCUUUGGGAAGUGGGGCAAGGGGGGGAUAGGGAGGGGGGUAACACUUUGGGAACAGGUGGUCCCAGGUCGUUUC: -0.487
UCAAGUCCUGUGCUACACAUCGUAUGUACCGAAUCGGGGCCGGGCCGGGCCGGGGAAAGUAUUAUGUUACGCCGUUCGGAUCUGCACUUC: -0.88
GUCCUGUGCUACACAUCGUAUGUACCGAAUCAAACCCCCCCAAAUUUAAAUUUUUAAAAAAGUAUUAUGUUACGCCGUUCGGAUCUGCAC: -0.372
ACCAUGCAGGUGGGCAUCUUUGGGAAGUGGGGCAAGGGCGGGAUAGGGAGGGGGGUAACACUUUGGGAACAGGUGGUCCCAGGUCGUUUC: -0.307
CCUGUGCUACACAUCGUAUGUACCGAAUCGGGUUUUUUUGGGAAAAAAAGGGAAAAAGGGAAAGUAUUAUGUUACGCCGUUCGGAUCUGC: -0.408
CAAGUCCUGUGCUACACAUCGUAUGUACCGAAUCGGUUUGGUUUUUUUGGAAAGGAAAGUAUUAUGUUACGCCGUUCGGAUCUGCACUUC: -0.0943
GUCCUGUGCUACACAUCGUAUGUACCGAAUCGGGGUUUGGGGUUUUUUUGGGGAGGGGAAAGUAUUAUGUUACGCCGUUCGGAUCUGCAC: 1.08
UAACUUUAGAGGAGGAUCUGAUGGAUAUGGCAGUGGACGUGGAUUUGGGGAUGGCUAUAAUGGGUAUGGAGGAGGACCUGGAGGUGGCAG: -0.21
UCAAGUCCUGUGCUACACAUCGUAUGUACCGAAUCGGGAAAGGAAAGGAAAGGGAAAGUAUUAUGUUACGCCGUUCGGAUCUGCACUUCC: -0.169
UCUGGACAUGCAGGUGGACCAGUCAGUGCCAGAGUAAGUUGUUGUUUUCUUAAAAGAAAAAAAAAAAUGUAAAAUCAUCUAACCCUAACC: -0.0114
GCAGGAAGUAAAAACAAAUGGAAAUGCUUCGGAUAGUGGCAGGGGUGGGGGUUGCUAAGGAAAGAAAGGGAUGGGAGUGGGUAAAGAGUU: 1.57
AAGUCCUGUGCUACACAUCGUAUGUACCGAAUCGGGCCCGGGGCCCGGGGCCCGGGAAAGUAUUAUGUUACGCCGUUCGGAUCUGCACUU: -1.26
CACAGACAACACGCACCCACACAGACACAGAGGGAAGGGGUUGGGAUGGGGACUGGGUGCACAGCAGGGCGGGGUAGGACCCCAGCCCCU: 0.416
AGUCCUGUGCUACACAUCGUAUGUACCGAAUCGGGGUUUUUUUGGGGAGGGGAGGGGAAAGUAUUAUGUUACGCCGUUCGGAUCUGCACU: 1.01

Study 3
Target: Hepatocyte nuclear factor 3-beta, forkhead domain (FOXA2, Homo sapiens, UniProt Q9Y261, residues 142-269)
Technique: protein-binding microarray
Form: double-stranded DNA, one strand shown
Sample: in vitro
Tested at: not given
Notes: k-mer, scored over probes, only values ≥0.25
Reading: higher = stronger binding
Measurement: E-score
Residues (chain): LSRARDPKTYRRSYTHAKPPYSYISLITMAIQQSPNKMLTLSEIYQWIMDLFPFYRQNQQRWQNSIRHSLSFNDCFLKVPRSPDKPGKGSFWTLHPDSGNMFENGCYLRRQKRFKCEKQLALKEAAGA
AACAAAAT: 0.306
TACGCATA: 0.292
AACACATT: 0.269
ATGTACAT: 0.261
ATATAACG: 0.316
CAGTCATA: 0.251
CATATATA: 0.403
ATATATAG: 0.352
AATATACA: 0.421
TTAATCAA: 0.32
ACTCAATA: 0.274
ACATATTC: 0.379
ATATAGAA: 0.361
TATACGAA: 0.276
AATAATTA: 0.317
ATAGATAC: 0.333
AATAGGTA: 0.263
AATATTGT: 0.33
GTAGTAAA: 0.307
CTTCAACA: 0.271
ATACATTA: 0.281
GCATACAA: 0.274
GTGTACAC: 0.396
AATCAGTA: 0.297
AAATAGTA: 0.324

Study 4
Target: RNA binding protein fox-1 homolog 2, RRM domain, GST-SBP tag (RBFOX2, Homo sapiens, UniProt O43251-10, residues 100-194)
Technique: RNA Bind-n-Seq
Form: RNA
Sample: in vitro
Tested at: 365 nM
Notes: natural RNA segment, single round, ends assumed
Relative to: no-protein control
Reading: higher = stronger binding
Measurement: RBNS enrichment (R)
Constant ends, left off below: GGGAGUUCUACAGUCCGACGAUC … UGGAAUUCUCGGGUGCCAA
Construct (chain): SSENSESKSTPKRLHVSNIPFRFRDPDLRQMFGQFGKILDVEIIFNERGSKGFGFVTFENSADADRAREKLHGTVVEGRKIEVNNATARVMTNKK
CAGCUUCCUUCCAAGUCUUCCUGACCACCUUGCACUAUUGGACUUUGGAAGGAGGUGCCUAUAGAAAACGAUUUUGAACAUACUUCAUCGCAGUGGACUGUGUCCCUCGG: 0.713
CCACAGUGCUGAGGAAAUCAUAGUGGCAGAAGGAGGAGGUGACUGGUUACAUCCCGUCCAGUCAGGAAGGAAAAGAAAAGGAAAAGUGCCUCGCUGGCUUCCUCCUUUUC: 0.441
UUCACUGAGUAUCAAAACUGCCAAGAAGGGUAACUAAGGUUCCUAAACUGUAAGAUGAGCAGGAGAUGAUCACUGGGAGAGAAAGCAUACUGGAUUGAAGGAAGGGCUGU: 0.587
CUCCCAGUCUGGGCAAAGGAGUGCUAUGCGGAAUUCUCUGCAUAGCAGAAAAGCUCCCACCAUUUUCUUUUGAUGUGGUUUUAAAGUCUCACGUUCUCUAUAAUAGAAAC: 0.381
CAGUGUCCUCAGUGAGCUCUCUGAGGAGCAGGCUUUCCAUGUCAGCUAUCUGGAUAUUGGUAUGGCCAACUAGAGACUGGGGAUGGAGGGGACUGGAUCAAAGCAAGUAU: 0.582
UUUUAAAAAGUAAGGUUUAAAGUCACAGCAGAUAGGAGAUUAAUGUUUUAUUGCCACAGAAAUUCUCUUUAAGAUCUGAGCUCUCCUGGUAAGAGUCUUUAUUAAAGUUU: 0.746
AAAAACAGUCUCCAUCUCCUCAAAAUAGUUGCUGACUCCCUGCACCCAAGGGGCCUCUCCAUGCCUUCUUAGGAAGCAGCUAUGAAUCCAUUGUCCUUGUAGUUUCUUCC: 0.37
AAGUUAGAGUUGUGGAAAGCAGUAUUGUUUUCUUCUCUAGUGAUUGUUACCCUACACAUUUCAUGGAAGCAUCUUCACAAAAUAUCAGACACAGUGGAAGGGGGAAAAAA: 0.835
GAGAAGACCACUGUGAGCAUUUUGCCGUAUAUCCUGCCCUGCCAUUUGUUCACUUUUUAAACUAAAAUAGGAACAUCCGACACACACCGUUUGCAUCGUCUUCUCCCUUG: 0.348
AAUUCUCAAGUGCACAGAUACUAGCAGUUAUGACAGUAAUACAGCGUCUUCUGUGACCCUCACUACCUGCACUGCUUGCAUCCCUGCUUUAUGCCUGGUGGCACAUUAUU: 1.31
AUGGUCAAGUCCUUUUGUUGCUCUCAUCCCCUCCCCCUGCCCCACCAUGUGCCCCUGGCUGCCCUUAUCCGCCCAAACCAAAGGCUGAGAGGGGGAGGCCUGUGUCCUUC: 0.525
UAUGCGCCAAGAUCUAAUUUUAAAACUGUAUGAGGACUUUGUGCUGAAAAUAGAGUAUUUUUUUAAAGUAAGGCUGUCUUGGUUUAAAAGCAGAUUACAGAAAUGUAAGU: 0.571

Study 5
Target: Interferon regulatory factor 7, full length, phosphomimetic (IRF7, Homo sapiens, UniProt Q92985, residues 1-503, S471D/S472D/S475D/S476D/S477D/S483D/S484D/S487D)
Technique: protein-binding microarray
Form: double-stranded DNA, one strand shown
Sample: in vitro
Tested at: 2200 nM top
Notes: 60-bp whole probe
Together with: salmon DNA 0.4 mg/ml
Relative to: random background probes
Reading: higher = stronger binding
Measurement: fitted relative affinity
Constant ends, left off below: GCCTAGCAC … GTCTTGATTCGCTTGACGCTGCTG
Residues (chain): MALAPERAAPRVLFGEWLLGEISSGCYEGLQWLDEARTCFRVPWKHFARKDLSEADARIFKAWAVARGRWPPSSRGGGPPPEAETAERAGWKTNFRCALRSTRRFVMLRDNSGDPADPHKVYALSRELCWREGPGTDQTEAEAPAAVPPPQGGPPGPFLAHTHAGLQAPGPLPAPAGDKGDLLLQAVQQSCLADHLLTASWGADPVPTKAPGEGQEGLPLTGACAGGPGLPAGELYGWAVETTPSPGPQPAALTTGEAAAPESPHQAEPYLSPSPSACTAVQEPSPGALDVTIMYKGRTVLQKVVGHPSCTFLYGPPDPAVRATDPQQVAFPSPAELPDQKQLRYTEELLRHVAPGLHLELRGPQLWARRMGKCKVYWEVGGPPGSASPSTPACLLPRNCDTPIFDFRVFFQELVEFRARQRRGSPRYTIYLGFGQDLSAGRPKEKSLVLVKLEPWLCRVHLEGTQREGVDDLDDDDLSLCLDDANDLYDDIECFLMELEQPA
TTAGATATGAGTATCGATTAGTGCTAG: -0.0301 z-score
TGAAGACTTTCTTTCAAATGGTGCTAG: 0.0126 z-score
TTTATTTATTTATTTATTTAGTGCTAG: 0.651 z-score
TACGATATCAGTATCGAGACGTGCTAG: 0.431 z-score
GACGATCTCAGACTGGACACGTGCTAG: -0.175 z-score
TCAGGTTTCTGGTTTATACTGTGCTAG: 3.39 z-score
AACGGTCTCCTTATCCTGACGTGCTAG: 1.09 z-score
TCACATTTGATAAATCTTACTGTGCTA: 0.58 z-score
AGCTCCCTTTCTCTCTGTGAGTGCTAG: 1.87 z-score
TCAGTTTTCAGTCCTGGACTGTGCTAG: 2.74 z-score
TCAGGTTTCGGACTGGGTTAGTGCTAG: 3.59 z-score
TCAAGTTTAATATCTAAGACTGTGCTA: -0.663 z-score
GAGGGACTGGGTTTCGGGACGTGCTAG: 1.13 z-score
GACGGTATCGGTATTGGGACGTGCTAG: 0.445 z-score
TTAGGTTTCGGGACTTGGTTAGTGCTA: 3.46 z-score
GACGGTTTCGACACTGGGGAAGTGCTA: 2.7 z-score
GACGATTCCAGTTTCGAGCCGTGCTAG: 3.15 z-score
GACGGACTAGACTATCGGGACGTGCTA: -0.564 z-score
TCAGGTCTCCTTATCCTTTAGTGCTAG: 1.34 z-score
GACAATATCAGACTGGAGACGTGCTAG: -0.00414 z-score
GGCGGTCTCCTTATCCTGACGTGCTAG: 0.17 z-score
TTAGAACTGGGTCTCGATTAGTGCTAG: -0.0112 z-score
GACGGTTTCGACTTTCGGGACGTGCTA: 8.69 z-score

Excerpt of the above (study 5):
TCAGGTTTCTGGTTTATACTGTGCTAG: 3.39 z-score
GGCGGTCTCCTTATCCTGACGTGCTAG: 0.17 z-score
TCAGGTCTCCTTATCCTTTAGTGCTAG: 1.34 z-score
TACGATATCAGTATCGAGACGTGCTAG: 0.431 z-score
GACGGACTAGACTATCGGGACGTGCTA: -0.564 z-score
TCAGGTTTCGGACTGGGTTAGTGCTAG: 3.59 z-score
TGAAGACTTTCTTTCAAATGGTGCTAG: 0.0126 z-score
GAGGGACTGGGTTTCGGGACGTGCTAG: 1.13 z-score
GACGATTCCAGTTTCGAGCCGTGCTAG: 3.15 z-score
GACGGTTTCGACACTGGGGAAGTGCTA: 2.7 z-score
